Measured values collected from several papers.
A part holds a random share of what one study measured. Positions count from the first letter of the parent shown.

Series 1 — target: CCNA1, cyclin fold, Cln2 fusion (human); technique: yeast growth competition, sequencing; matrix: yeast; setting: weak parent motif; reference: not given; reading: higher = stronger binding
Starting sequence: E2F1 docking peptide (human); PPVKRRLDLETDH
Change	normalised enrichment score
PPVKRRLDLFTDH [E10F]	0.54
PPVKRRLYLETDH [D8Y]	0.207
PPVKRRLDLNTDH [E10N]	0.607
PPVKRCLDLETDH [R6C]	0.319
PFVKRRLDLETDH [P2F]	0.612
PPVKRRLDLCTDH [E10C]	0.505
PPTKRRLDLETDH [V3T]	0.286
PPVKRRSDLETDH [L7S]	0.286
PPCKRRLDLETDH [V3C]	0.639
PGVKRRLDLETDH [P2G]	0.439
PPVKRNLDLETDH [R6N]	0.377
PPVKRRPDLETDH [L7P]	0.308
PWVKRRLDLETDH [P2W]	0.538
PPVKRRLDLETHH [D12H]	0.161
PPVKRRLDLETDT [H13T]	0.633
PPPKRRLDLETDH [V3P]	0.52
PKVKRRLDLETDH [P2K]	0.428
PNVKRRLDLETDH [P2N]	0.404

Series 2 — technique: RNA Bind-n-Seq; form: RNA; matrix: in vitro; concentration: 200 nM; setting: whole 134-nt RNA, ends assumed; with: 150 mM LiCl; reference: input library; reading: higher = stronger binding; all molecules: 7-deaza-guanosine replaces G
Target: Ras GTPase-activating protein-binding protein 1, full length (G3BP1, Homo sapiens, UniProt Q13283)
Sequence of UniProt Q13283 (whole entry, looked up): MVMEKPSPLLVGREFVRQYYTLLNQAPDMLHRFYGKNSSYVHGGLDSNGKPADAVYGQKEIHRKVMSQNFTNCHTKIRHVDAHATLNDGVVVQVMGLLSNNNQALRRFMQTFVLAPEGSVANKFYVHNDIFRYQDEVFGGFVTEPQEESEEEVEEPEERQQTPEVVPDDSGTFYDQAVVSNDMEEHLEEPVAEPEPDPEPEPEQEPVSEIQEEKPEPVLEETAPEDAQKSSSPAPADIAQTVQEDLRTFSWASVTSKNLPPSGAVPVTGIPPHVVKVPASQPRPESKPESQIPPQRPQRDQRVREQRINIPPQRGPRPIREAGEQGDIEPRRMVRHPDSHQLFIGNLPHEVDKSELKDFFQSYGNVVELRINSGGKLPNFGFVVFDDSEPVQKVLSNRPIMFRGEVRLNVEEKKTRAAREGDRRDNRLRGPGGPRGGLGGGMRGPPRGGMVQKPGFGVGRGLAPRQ
Constant ends, left off below: GGGAGUUCUACAGUCCGACGAUC … UGGAAUUCUCGGGUGUCAAGG
Sequence	log2 enrichment
GUCCUGUGCUACACAUCGUAUGUACCGAAUCAAAUUUUUUUAAACCCAAAUUUUUAAAAAAGUAUUAUGUUACGCCGUUCGGAUCUGCAC	-2.54
CCUGUGCUACACAUCGUAUGUACCGAAUCGGGGUUUUUUUGGGGAGGGGUUUUUUUGGGGAAAGUAUUAUGUUACGCCGUUCGGAUCUGC	1.04
UCAAGUCCUGUGCUACACAUCGUAUGUACCGAAUCGGCCCGGCCCGGCCCGGGGAAAGUAUUAUGUUACGCCGUUCGGAUCUGCACUUCC	0.0207
CUCAAGUCCUGUGCUACACAUCGUAUGUACCGAAUCGGGUUGGUUGGUUGGGGAAAGUAUUAUGUUACGCCGUUCGGAUCUGCACUUCCA	0.292
UGUCAGUAUCAUACAUAACAGAGGAAUGCCUGAAGAAGCUGGACACAAAGCAGCAGACCAACACCCUGCUCAACCUGGUGUGGAGGGACU	-1.21
UGCCUGUAUGGAGUGGAAUGAAUGUUGCUGGUGUCUCUCUGAAGACUCUGCACCCAGAUUUAGGGACUGAUAAAGAUAAGGAACAGUGGA	0.284
CUGUGCUACACAUCGUAUGUACCGAAUCGGGGAAAAAAAGGGAAAAAAAGGGAAAAAAAGGGAAAGUAUUAUGUUACGCCGUUCGGAUCU	0.358
CCUCAAGUCCUGUGCUACACAUCGUAUGUACCGAAUCGGAGGAAAGGAAAGGAAAGUAUUAUGUUACGCCGUUCGGAUCUGCACUUCCAG	-0.746
UGGCCCUGGUGGCAUGCGGGGAGGAAGAGGUGGCCUCAAGGAUCGUGGUGGUCCCGGUGGAAUGUUCAGAGGUGGCCGUGGUGGAGACAG	0.262
AGUCCUGUGCUACACAUCGUAUGUACCGAAUCGGGGCCCGGGGCCCGGGGCCCGGGGAAAGUAUUAUGUUACGCCGUUCGGAUCUGCACU	-1
UAACUUUAGAGGAGGAUUUGAUGGAUAUGGCAGUGGACGUGGAUUUGGGGAUGGCUAUAAUGGGUAUGGAGGAGGACCUGGAGGUGGCAA	0.0668

Series 3 — technique: RNA Bind-n-Seq; form: RNA; matrix: in vitro; concentration: 365 nM; reference: no-protein control; reading: higher = stronger binding
Target: RNA binding protein fox-1 homolog 2, RRM domain, GST-SBP tag (RBFOX2, Homo sapiens, UniProt O43251-10, residues 100-194)
Setting: natural RNA segment, single round, ends assumed
Constant ends, left off below: GGGAGUUCUACAGUCCGACGAUC … UGGAAUUCUCGGGUGCCAA
Residues (chain): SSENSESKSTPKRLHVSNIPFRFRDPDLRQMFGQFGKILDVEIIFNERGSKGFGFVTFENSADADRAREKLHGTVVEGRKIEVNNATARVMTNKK
Sequence	RBNS enrichment (R)
CACAACUUGCACAGCAGGCCCACCCUGCAAGGACCCCAUCAGUGUGAGCAUCGCAGUAGCCAGCCACAGAAGCUAACAAGCCUUGAACCACUCUGGUGGCCACACAGCGC	0.527
GGAAGCCGUGGGGUCCCUCAGGCCUGGGCGGUGCAGCUUCCAGAGAGCGAGCGCCCUUUAGCGGCCUGCCACCACAGCACGCGGCCUCCUGAUCCGGAAGCACGCAGCAU	21.9
ACAUGCUAUGCUGAAGACAUUCAAAACGUGAUGUUUUGAAUGUGGAUAAAACUGUGUAAACCACAUAAUUUUUGUACAUCCCAAAGGAUGAGAAUGUGACCUUUAAGAAA	0.36
GUUUUCUUGCAUUGAAAGAUAACUGAGUAAUAACCUGUAACUAUUUUUAAAUGGCAUGAAAUUAGGAAACUUUUGUACAUUUUAUAUACAUUUUGAGAUGAACAGAACAA	0.777
CCUUCUCCCGGCCCUCACUAAGCCCCGGCACUUCUAGUGGUCUCACCUGGAGGCAAGAGGGAGGGGACAGAGGCCCUGCCACGUCCCGCUGCCUCCUGCUCUCUGGAGGU	0.32
CACCUUGUUCAGUGCCUGUCUAACAUGGCUAGCUACAAGGCAAUGUUGUCUCCUCCUAAUGUCCACCUCAGUGACGAGGUUCCACACUGUCUCCUCACCUCUUGUCACGG	0.433
UGUCAUCUCUGAAAAGACUGGGGGAUAUGAAAUCUUCCCCCUACCCCACUUAAUGCGUUGGAUAUGAUUUUUCAAAGAAUGCUUCAUGCCCAAAAUACCAGCCUGUUUAG	1.43
AUAAUUUAAAAGGUUUAGUCGCCAAAAGCAGUUAAGUGGUGCAGUAAGAUAGUUAAGUUAUUCAAAGAGUGUUACCCUCCUUGCAAGAGUAACUGAAGCACAUUGGAAAG	0.796
AAGGGCAAAGGCUAUGAGGUAGAGGGAGGUGACAGGCAUUGCAGGUGGCAGACUGACUUUGGACAGUGAGACCCUGACCUUGCUGCAUUGCUUUGCCUUCACCACCGCUA	1
UGCCCCUCUCCUUCCUGGCUACUUAAGGUCAGGAAGGAAAAAGGGGACCUCUGUUUCUUCGGCUGUUGGAACCUUGAAAUGACCAGAAAGUAGGACAUGUGCAGUCCCAC	0.455
GGGGUUUCCUGGUAUUGUGGAGGCACCCAGGUUGUCCAUGCUUGGGAUUCUGGGGGAAGGAGAGAAGGGCAGCUCAGGGUGGAUGUGAAGCCACCCUUCCUCUUCUGGAC	1.73
UACUUGAAAAAAACAAGGCCAUAUGUAAAGAAAAAAAAAAACCCUCUUUCAAUGCCUAAGUGUCUUCUUCUAUCACUCCACACCCACAGUUGCCACUUGGGGUGCACAGA	0.437

Series 4 — technique: RNA Bind-n-Seq; form: RNA; matrix: in vitro; concentration: not given; setting: RNA with constant flanks, ends assumed; reference: input RNA pool; reading: higher = stronger binding
Target: RING finger protein unkempt homolog, zinc fingers 1-6, GST-SBP tag (UNK, Homo sapiens, UniProt Q9C0B0, residues 30-357)
Constant ends, left off below: GGGAGUUCUACAGUCCGACGAUC … CAACAGAGGAUUGAGCAUCA
Residues (chain): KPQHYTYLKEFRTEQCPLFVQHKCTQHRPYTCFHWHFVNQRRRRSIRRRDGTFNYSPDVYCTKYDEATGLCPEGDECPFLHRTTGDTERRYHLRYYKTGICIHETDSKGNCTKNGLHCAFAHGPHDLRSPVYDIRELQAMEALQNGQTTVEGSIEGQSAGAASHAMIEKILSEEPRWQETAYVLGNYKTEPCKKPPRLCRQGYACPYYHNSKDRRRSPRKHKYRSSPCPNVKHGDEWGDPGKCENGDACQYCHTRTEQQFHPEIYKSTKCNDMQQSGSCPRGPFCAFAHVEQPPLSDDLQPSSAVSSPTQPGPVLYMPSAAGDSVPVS
Sequence	bound/input enrichment [ratio]
ACCUUAGCUGUGGGACUCAUCAACAUGGCAGAGGUGAUGCAACACCCUAAUGAGGGCGCUUCCGUACUUGGCCUGCACAGCAAUGUGAAGGAUGUCUCUGUGCCAGUGGCAGAAAUAAAA	0.142
GUUACAGGUCCUGGUGGUGUUCCAGUUCAAGGCAGUAAAUAUGCAGCAGACCGUAACCAUUACCGACGCUAUCCACGUCGUAGGGGUCCUCCACGCAAUUACCAGCAAAAUUACCAGAAU	0.229
CUGGGUUGGCAAUUGACUGGUCAAGAAACCCAUGAGUUACAAAUGUGUUUGAAACAAAUAAUCCGAAACAUAAAAUUCAAAAUGCCCCAAUAUAGCACUUUUGGGGAUUCAACUUCUACA	0.157
AUUGCUUCCUGGUAGUGUGGAAGAAACACAAGACCCUCAUUCCCAUUUCCAUUUCCAUUGCCGUCAAAGGUAUUGGCUUAGGUUUCUCCCGUGCUCCUUUCAUCCCCUCCCUGCCUGAGC	0.705
AUGAACCUGCAGAUAGUGGACAGAGCCAUUCAGGUAGUCCGAAGUGCGUUGGCCAACCAGACCGACUGGACAGAAAUCGGAGUGAUUGUGAAAGAAGCUCAAGCUCAAGGAGACCCGGUU	0.135
UUCAUUCAUGCUAAUGUUGACAUUGACUUAAUUAUCACAGAAGAACCUGAAAUUGGCAAUACCGAAAAACCUGUAGAAAUUUUUCAUAUAAUUGAGCAUUUUUGUCUUGGUAGAAGACGC	0.243
AAUAUCAUGCAGGUUUUUAUAUACUGCCUGGAACAACUGAGCACCAAGCCUGAUGCAGACACCGAUACUACUCAUCUUUCUGUUGAUGUUUCUUCUCCUGAUUUGUUUGGAAGCAUCCAU	0.157
UAGAAUCUUGUUUUUAGAUUGAAUUUGAAUCUAUAUUUAUUGUCUUUUUGUAUCUUGGAAAUCCGAGAUUUGUUAUAGAUUUACCUGUAUUUGUCAAGAUCAUAGCUGGUUUUAAAAAUG	1.51
UAUUCAGCCUGGGCAUUGCUCGCUGGGAGAGCCAGACCACCAGGCUCUUCCUCACCCUCCUCCGGAAGUGGUCUUCAGCACUGUUCUGACCCCAGGUGUUACCAGCUGGUUCAUCACAGG	0.133
GGCUUGGAGUUUGGCAAGUUACCAUUUGGUGCCUGCGAAGAUCCUAUUAGUGAACUCCAUUCCGCUACUACAUGGCCUCAUCUGACCGAAGGGAUCAUUGUGGAUAAUGAUGUUUAUUCU	0.0864
UUAAUGUUUAAGUUCAAAUUAAUGUAGAGCCCUCCCUCUUUUGGGGGGUAAACUUUUUAAAUCCGGACUUACAGGAGAUCAAGAAGGAACUUUCAAAGACGGGUGAGGAGAAGUACAUAG	0.618

Repeated from above (series 2):
Sequence	log2 enrichment
CUCAAGUCCUGUGCUACACAUCGUAUGUACCGAAUCGGGUUGGUUGGUUGGGGAAAGUAUUAUGUUACGCCGUUCGGAUCUGCACUUCCA	0.292
UGUCAGUAUCAUACAUAACAGAGGAAUGCCUGAAGAAGCUGGACACAAAGCAGCAGACCAACACCCUGCUCAACCUGGUGUGGAGGGACU	-1.21
UGCCUGUAUGGAGUGGAAUGAAUGUUGCUGGUGUCUCUCUGAAGACUCUGCACCCAGAUUUAGGGACUGAUAAAGAUAAGGAACAGUGGA	0.284
CUGUGCUACACAUCGUAUGUACCGAAUCGGGGAAAAAAAGGGAAAAAAAGGGAAAAAAAGGGAAAGUAUUAUGUUACGCCGUUCGGAUCU	0.358
CCUCAAGUCCUGUGCUACACAUCGUAUGUACCGAAUCGGAGGAAAGGAAAGGAAAGUAUUAUGUUACGCCGUUCGGAUCUGCACUUCCAG	-0.746
UGGCCCUGGUGGCAUGCGGGGAGGAAGAGGUGGCCUCAAGGAUCGUGGUGGUCCCGGUGGAAUGUUCAGAGGUGGCCGUGGUGGAGACAG	0.262
AGUCCUGUGCUACACAUCGUAUGUACCGAAUCGGGGCCCGGGGCCCGGGGCCCGGGGAAAGUAUUAUGUUACGCCGUUCGGAUCUGCACU	-1
UAACUUUAGAGGAGGAUUUGAUGGAUAUGGCAGUGGACGUGGAUUUGGGGAUGGCUAUAAUGGGUAUGGAGGAGGACCUGGAGGUGGCAA	0.0668
